Assay results pooled from the literature.
Each numbered part is a random draw from the data of one study; scales do not carry over between parts. Changes are numbered by the printed parent chain.

Block 1
Target: Sal-like protein 4, full length isoform B (SALL4, Homo sapiens, UniProt Q9UJQ4-2, residues 1-616)
Technique: universal PBM
Molecule type: double-stranded DNA, one strand shown
Matrix: in vitro
Concentration: not given
Setting: 8-mer, flanks averaged, mean of replicates
Direction: higher = stronger binding
Endpoint: E-score
Residues (chain): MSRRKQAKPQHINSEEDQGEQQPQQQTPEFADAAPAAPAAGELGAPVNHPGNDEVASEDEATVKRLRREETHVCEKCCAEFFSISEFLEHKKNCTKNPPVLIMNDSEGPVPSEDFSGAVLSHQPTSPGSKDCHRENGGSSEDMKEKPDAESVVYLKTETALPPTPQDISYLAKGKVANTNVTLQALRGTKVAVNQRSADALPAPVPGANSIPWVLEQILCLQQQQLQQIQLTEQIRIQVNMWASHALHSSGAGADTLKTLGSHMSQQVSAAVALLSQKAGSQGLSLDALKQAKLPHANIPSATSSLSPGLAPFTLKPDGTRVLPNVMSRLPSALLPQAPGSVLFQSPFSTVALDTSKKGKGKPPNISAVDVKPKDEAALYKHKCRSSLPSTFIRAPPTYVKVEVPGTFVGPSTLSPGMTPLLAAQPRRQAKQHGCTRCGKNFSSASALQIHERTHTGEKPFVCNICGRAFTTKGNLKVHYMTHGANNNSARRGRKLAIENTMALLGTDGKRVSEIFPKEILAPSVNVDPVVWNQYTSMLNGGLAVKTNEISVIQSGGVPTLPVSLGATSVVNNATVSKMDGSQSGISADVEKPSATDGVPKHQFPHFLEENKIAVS
Sequence = AGACCGTA; value = -0.0256
Sequence = AGGGACCA; value = -0.247
Sequence = AGACGTCT; value = -0.0417
Sequence = CGGCATGA; value = 0.0565
Sequence = GATGGATA; value = 0.00867
Sequence = CCGTTTAG; value = -0.0713
Sequence = AGGGGACG; value = -0.262
Sequence = GATGCCCC; value = -0.342
Sequence = AAGGTACC; value = -0.206
Sequence = GTCCCCAC; value = -0.276
Sequence = AGGATACC; value = -0.163
Sequence = TACCTAAA; value = 0.137
Sequence = AAACCACA; value = 0.113
Sequence = AGCATTAA; value = 0.208
Sequence = ATCTAAAA; value = 0.111
Sequence = AGCCCGTA; value = -0.0574
Sequence = CTCTCCCA; value = -0.0862

Block 2
Target: Prothrombin, mature alpha-thrombin (F2, Homo sapiens, UniProt P00734)
Technique: aptamer microarray, sandwich
Molecule type: DNA with 2'F-ANA
Matrix: in vitro
Concentration: 200 nM
Setting: whole 15-mer aptamer, many near background
Added: Cy3 exosite-II aptamer, 400 nM
Direction: higher = stronger binding
Endpoint: mean fluorescence intensity
Sequence: GGTTGGTGTGGTTGG
Modification = 2'F-ANA at 1 2 3 4 5 6 7 12 13 14; value = 46.3 a.u.
Modification = 2'F-ANA at 1 2 4 6 7 9 11 12 13 15; value = 122 a.u.
Modification = 2'F-ANA at 1 2 3 6 9 10 11 12 15; value = 74.4 a.u.
Modification = 2'F-ANA at 1 2 3 4 5 6 8 9 10 11 14 15; value = 61.6 a.u.
Modification = 2'F-ANA at 1 2 3 4 6 8 9 12 15; value = 357 a.u.
Modification = 2'F-ANA at 1 5 6 7 8 12 13; value = 114 a.u.
Modification = 2'F-ANA at 5 7 10 15; value = 46.1 a.u.
Modification = 2'F-ANA at 1 2 3 4 7 11 12; value = 321 a.u.
Modification = 2'F-ANA at 3 4 6 7 9 11 12 14 15; value = 273 a.u.
Modification = 2'F-ANA at 1 2 3 4 7 9 11 12 13; value = 196 a.u.
Modification = 2'F-ANA at 1 3 4 5 8 12 14; value = 45.4 a.u.
Modification = 2'F-ANA at 1 2 3 5 8 11 12 13 14; value = 61.1 a.u.
Modification = 2'F-ANA at 2 3 4 6 7 9 11 13 15; value = 320 a.u.
Modification = 2'F-ANA at 2 3 5 8 10 12 15; value = 66.3 a.u.
Modification = 2'F-ANA at 2 4 5 6 9 12 13 14 15; value = 53.5 a.u.
Modification = 2'F-ANA at 1 2 3 6 7 8 9 11 13; value = 157 a.u.
Modification = 2'F-ANA at 1 2 4 5 6 8 10 14; value = 46.2 a.u.

Block 3
Target: CCND3, cyclin fold, Cln2 fusion (human)
Technique: yeast growth competition, sequencing
Matrix: yeast
Setting: weak parent motif
Reference: not given
Direction: higher = stronger binding
Endpoint: normalised enrichment score
Starting sequence: MICAL3 docking peptide (human); LQLRRQLSFSEDS; partner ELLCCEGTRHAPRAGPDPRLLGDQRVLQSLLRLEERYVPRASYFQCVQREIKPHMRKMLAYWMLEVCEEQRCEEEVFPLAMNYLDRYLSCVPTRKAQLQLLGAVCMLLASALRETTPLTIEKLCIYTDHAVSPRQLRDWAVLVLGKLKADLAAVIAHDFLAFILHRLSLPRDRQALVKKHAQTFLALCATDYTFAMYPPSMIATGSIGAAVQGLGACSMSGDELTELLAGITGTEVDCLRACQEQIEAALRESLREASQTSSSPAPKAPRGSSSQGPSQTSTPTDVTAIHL
Change = LQLRDQLSFSEDS [R5D]; value = -0.0082
Change = LQLRRQPSFSEDS [L7P]; value = 0.15
Change = LQLRRILSFSEDS [Q6I]; value = 0.358
Change = LQLRRQLSFSPDS [E11P]; value = 0.108
Change = LQLRCQLSFSEDS [R5C]; value = 0.239
Change = LQLRRQLSMSEDS [F9M]; value = -0.192
Change = LQLRRQLSSSEDS [F9S]; value = -0.316
Change = LQLSRQLSFSEDS [R4S]; value = 0.0685
Change = LQLRRQESFSEDS [L7E]; value = 0.312
Change = LQLMRQLSFSEDS [R4M]; value = -0.35
Change = LQLRRQLSFSEKS [D12K]; value = -0.109
Change = LQLDRQLSFSEDS [R4D]; value = -0.118
Change = LQLKRQLSFSEDS [R4K]; value = -0.0584
Change = LQLRRQLSFSEMS [D12M]; value = 0.199
Change = LQLRRQLSFYEDS [S10Y]; value = 0.278
Change = LQLYRQLSFSEDS [R4Y]; value = 0.368
Change = LQERRQLSFSEDS [L3E]; value = 0.00577
Change = LQLRRQLSFGEDS [S10G]; value = 0.2
Change = LQLRRQLSFQEDS [S10Q]; value = -0.0192
Change = LQLRRQLSFSECS [D12C]; value = -0.0141
Change = LQLRRQHSFSEDS [L7H]; value = 0.446

Block 4
Target: RNA binding protein fox-1 homolog 2, RRM domain, GST-SBP tag (RBFOX2, Homo sapiens, UniProt O43251-10, residues 100-194)
Technique: RNA Bind-n-Seq
Molecule type: RNA
Matrix: in vitro
Concentration: 365 nM
Setting: natural RNA segment, single round, ends assumed
Reference: no-protein control
Direction: higher = stronger binding
Endpoint: RBNS enrichment (R)
Target sequence (chain): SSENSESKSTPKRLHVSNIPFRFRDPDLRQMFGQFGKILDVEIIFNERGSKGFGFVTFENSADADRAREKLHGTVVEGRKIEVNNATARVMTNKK
Sequence = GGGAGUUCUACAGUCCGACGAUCUUUAUACUCUCAGAUAGUUUGCUCCACAAAUUUUCAUUUCGUGAUUCUGUAUAUAUUGCCCUGAACUUUCUGUGAUCACAGAUUAAAAAUAUCUUUUGGUUCCAAAUAGAUGGAAUUCUCGGGUGCCAA; value = 1.17
Sequence = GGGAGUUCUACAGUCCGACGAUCUGUGCCUGUGUGUGUAUAAAAAUAACCAUUGAAGCUAACUUGCUAAUGUACUUAGGCAAGCCACUUCCCAUCUCUGGGCCUCGUCUUUCCUCCCUCUAAAAUCAAAGAGCUGGAAUUCUCGGGUGCCAA; value = 0.348
Sequence = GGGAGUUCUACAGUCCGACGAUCGUUUUAAUGUAUUUUAUUGAUUAUCUUCCCGGUUAGUCGAUUAUUUUUCCUCCUCCAAUUGUUUUACCAGACCAGAGAGAGAAAUAAAAACCUCUCCUCACACUUGGUAUUGGAAUUCUCGGGUGCCAA; value = 0.278
Sequence = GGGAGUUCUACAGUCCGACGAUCUUUAUUUUGUUGGUUUACUUUGUGUUUUCUCCUUUUUGGGGGGUAUUCAGAGUGGGCCGGGCCCCUGGGCGAGACACAGCUACCUCUGUUGGCAUCUUUUUAAUACCAGGUGGAAUUCUCGGGUGCCAA; value = 0.301
Sequence = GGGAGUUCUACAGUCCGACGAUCCCCUGUAGCGUCUGAUUCCACUUACCAGACACCCACGCAUCUGCAGGAUGUCUGAUGCAGAGCGGUUCUCCAUCCCUCAGUUCCAGAAAAAAUGGAGUGAUAUUUAAAAAUGGAAUUCUCGGGUGCCAA; value = 0.399
Sequence = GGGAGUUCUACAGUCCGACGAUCGGUCGGGCUUUCUAAGCUUUGUCAGAUAACUAUUUUUCCUAAGUAUGUGUUUCCUACUCCAGUGAUUGACAAGUGUGCAUUGCCUAUGUUUGUUUAUACUUUAAUUACAAUGGAAUUCUCGGGUGCCAA; value = 0.747
Sequence = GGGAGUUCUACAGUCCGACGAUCGACAGACCAUAUGUCCCACCAGCUGGGGAAUCUGACAAGAGGACAUAGGUGGCACUCUUUUUUUAAAGCUAUUUAUUGUAUCUAUUUUUAAAUAAAAUUGCCCAUCCUCAUGGAAUUCUCGGGUGCCAA; value = 0.559
Sequence = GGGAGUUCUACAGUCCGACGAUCUUUAUCUUACGAAGUAGCUACAGGGUUCUAGCAGUUUCCAGAAUAUAAUGUAGGGGGAUAGCGGGAUAUUUUUGUUUGUGUUCUUGUAAUAUAUUAUCCUUCCUUGGUUCUGGAAUUCUCGGGUGCCAA; value = 1.16
Sequence = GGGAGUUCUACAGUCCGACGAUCUGCCUCCCUUCCUCCGCUCCCCUUUCCCAUCACCCCUUCCCCAUUUCCUCUUCCUUCUCUACUCAUGCCAGAUUUUGGGAUUACAAAUAGAAGCUUCUUGCUCCUGUUUAUGGAAUUCUCGGGUGCCAA; value = 0.964
Sequence = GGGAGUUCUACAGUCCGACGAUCGAAGGGGGCACUGCAUUGCUCUUUUGUUGCAGAGGCAGGGGGUAACUGCAUUAUUAUUGUGAAACAAACCGAUGUGGUUUAGAGCCACCAGCACUGACCCUUUCCUAGUUUGGAAUUCUCGGGUGCCAA; value = 0.789
Sequence = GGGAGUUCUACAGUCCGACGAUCAGUUUGGUGGCCCAAGUCCUGAACCCCUCUUAGACCAGGUGAGGUGCAGAGGUGGUUGCUGCUUCCAGUUUCCCUUCAGACUUAGCUGUGUGAACCCCACUCCUAUCCUUUGGAAUUCUCGGGUGCCAA; value = 0.508
Sequence = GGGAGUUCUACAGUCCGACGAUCGUUGUCAUUCCUUUGCAACAUUAAAAUACAUGCUGAACUCAUAUUUUUCCUUCCUUCACUGUUGUAGUAAAGAGACAUAUUUCAUGAAUGGCAUUGAUGCUAAUAAAUCCUGGAAUUCUCGGGUGCCAA; value = 0.578

Block 5
Target: Histone acetyltransferase KAT6A, both winged helices, GST fusion (KAT6A, Homo sapiens, UniProt Q92794, residues 1-181)
Technique: protein binding microarray
Molecule type: double-stranded DNA, one strand shown
Matrix: in vitro
Concentration: not given
Setting: 8-mer, flanks averaged, mean of 2 arrays, mostly near background
Reference: not given
Direction: higher = stronger binding
Endpoint: E-score
Residues (chain): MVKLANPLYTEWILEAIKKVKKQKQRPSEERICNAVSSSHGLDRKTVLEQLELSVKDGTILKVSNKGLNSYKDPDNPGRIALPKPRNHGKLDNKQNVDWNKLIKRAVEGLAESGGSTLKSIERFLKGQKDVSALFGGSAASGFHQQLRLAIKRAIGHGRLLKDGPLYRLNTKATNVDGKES
Sequence = AAGCTCTA; value = -0.179
Sequence = AACGGTTG; value = -0.0685
Sequence = ATCCGTTC; value = 0.19
Sequence = GCTCGGGA; value = 0.106
Sequence = TCCGTGAA; value = 0.251
Sequence = GCCAGGCA; value = -0.0292
Sequence = CCAGTTAA; value = -0.068
Sequence = ATACAGTA; value = -0.033
Sequence = GATTACCA; value = -0.078
Sequence = GCCCCGCC; value = 0.201
Sequence = AAAGTTGA; value = -0.0537
Sequence = TCGGGCCA; value = 0.0282
Sequence = GGCAGCCA; value = -0.0297
Sequence = CGCTTGCC; value = 0.224
Sequence = GAATGTCA; value = -0.157
Sequence = ATGTTACG; value = 0.121
Sequence = GCCGGGAA; value = 0.168
Sequence = GAGCCCAC; value = -0.0933
Sequence = ATAGGTTG; value = -0.151
Sequence = AGGTAGAC; value = -0.0773
Sequence = AGTCCTGC; value = -0.0545
Sequence = GGTCATTA; value = 0.115
Sequence = CAGTCTGA; value = -0.166
Sequence = AGTCTCTG; value = -0.236
Sequence = ATTACCCC; value = -0.0307

Repeated from above (block 5):
Sequence = GCTCGGGA; value = 0.106
Sequence = TCCGTGAA; value = 0.251
Sequence = GCCAGGCA; value = -0.0292
Sequence = CCAGTTAA; value = -0.068
Sequence = ATACAGTA; value = -0.033
Sequence = GATTACCA; value = -0.078
Sequence = GCCCCGCC; value = 0.201
Sequence = AAAGTTGA; value = -0.0537
Sequence = TCGGGCCA; value = 0.0282
Sequence = GGCAGCCA; value = -0.0297
Sequence = CGCTTGCC; value = 0.224
Sequence = GAATGTCA; value = -0.157
Sequence = ATGTTACG; value = 0.121
Sequence = GCCGGGAA; value = 0.168
Sequence = GAGCCCAC; value = -0.0933
